Published values pooled from the literature.
± gives the spread as reported.

| SMILES | cell line | test | setting | how to read | measurement | result |
| --- | --- | --- | --- | --- | --- | --- |
| O=C(O)CCC(NP(=O)(O)OCCC[C@@H](NC(=O)CCC(NC(=O)CCCCCNC(=O)c1ccc([18F])cc1)C(=O)O)C(=O)O)C(=O)O (stereo partly drawn) | CWR22Rv1 |  | 1 h |  | surface-bound fraction | 18.6 ± 2.7% |
| CCN(CC)CCOc1ccc(-c2nnn(Cc3ccc(OC)cc3)c2N)cc1 | primary human vestibular schwannoma |  | 5 µM, 7 days |  | total cell count | no effect |
| O=[N+]([O-])c1ccc(Sc2nnc[nH]2)c2nonc12 | Ramos | LFQ mass spectrometry | 10 µM, 8 h |  | downregulated proteins | 533 count |
| CC(=O)N1CCCC[C@H]1C(=O)NC(C)(C)C(=O)N1CCCC[C@H]1C(=O)NC(C)(C)C(=O)NC(C)(C)C(=O)N[C@@H](CC(C)C)C(=O)NCCC(=O)NCC(=O)NC(C)(C)C(=O)NC(C)(C)C(=O)N1CCCC[C@H]1C(=O)NC(C)(C)C(=O)NCC(=O)N[C@@H](CC(C)C)C(=O)NC(C)(C)C(=O)N[C@@H](CC(C)C)C[N+]1=C2CCCN2CCC1 | MCF-10A | cell growth or viability, SRB | 48 h |  | GI50 | 326 nM |
| CCCc1cc(OC)c2c(c1OC)OCO2 | HCT-116 | cell growth or viability | 72 h |  | GI50 | > 250000 nM |
| CC[C@H](C)[C@H](NC(=O)[C@H](Cc1ccccc1)NC(=O)[C@H](CC(=O)O)NC(=O)[C@H](CCCCN)NC(=O)[C@H](C)NC(=O)[C@H](CCCCN)NC(=O)[C@H](CC(N)=O)NC(=O)[C@H](CC(C)C)NC(=O)[C@H](Cc1c[nH]c2ccccc12)NC(=O)[C@H](CCC(=O)O)NC(=O)[C@H](CCCCN)NC(=O)[C@@H](NC(=O)CNC(=O)[C@H](C)N)[C@@H](C)O)C(=O)N[C@@H](CCCCN)C(=O)N[C@@H](CCC(=O)O)C(=O)N[C@@H](CCCCN)C(=O)NCC(=O)N1CCC[C@H]1C(=O)NCC(=O)N[C@@H](CCSC)C(=O)N[C@@H](CC(C)C)C(=O)N[C@@H](CO)C(=O)N[C@@H](C)C(=O)N[C@@H](C)C(=O)N[C@@H](C)C(=O)N[C@@H](CC(N)=O)C(=O)N[C@@H](C)C(=O)N[C@@H](C)C(=O)N[C@@H](CC(C)C)C(=O)N[C@@H](CC(N)=O)C(=O)O | mouse DRG neurons |  | 10 µM, 90 s |  | intracellular calcium increase | inactive |
| COc1cc2c(cc1OC)C(=O)C(=Cc1ccc(N3CC[N+](C)(C)CC3)cc1)C2 | PC-12 | lipid peroxidation | concentration not given, added: amyloid beta 1-42 |  | MDA level | decreased |
| C[C@H]1C(OCCCCC[P+](c2ccccc2)(c2ccccc2)c2ccccc2)O[C@@H]2O[C@@]3(C)CCC4[C@H](C)CCC1[C@]42OO3 (stereo partly drawn) | T24 | MTT | 72 h | baseline: HUVEC IC50 over T24 IC50 | selectivity index | 1.18 |
| CC(C)C[C@H](NC(=O)[C@H](CCC(N)=O)NC(=O)CNC(=O)[C@H](Cc1c[nH]cn1)NC(=O)[C@H](CCC(N)=O)NC(=O)[C@H](CCCNC(=N)N)NC(=O)[C@H](CCCNC(=N)N)NC(=O)CNC(=O)CNC(=O)[C@H](CCCNC(=N)N)NC(=O)[C@H](CCCNC(=N)N)NC(=O)[C@H](CCCNC(=N)N)NC(=O)[C@H](CCC(N)=O)NC(=O)[C@H](CCCNC(=N)N)NC(=O)[C@H](CCCNC(=N)N)NC(=O)[C@H](CCCCN)NC(=O)[C@H](CCCCN)NC(=O)[C@H](CCCNC(=N)N)NC(=O)CN)C(=O)N[C@@H](Cc1c[nH]c2ccccc12)C(=O)N[C@@H](Cc1ccccc1)C(=O)N1CCC[C@H]1C(=O)N[C@@H](CCC(=O)O)C(=O)NCC(=O)N[C@@H](Cc1ccccc1)C(=O)O | TALL-1 | WST-8 | concentration not given, 24 h |  | viability | no effect |
| CC12OOC(C)(OO1)C2CCC(=O)NCCNc1ccnc2cc(Cl)ccc12 (stereo not drawn) | HL-60 | cell growth or viability, resazurin | 10 µM, 48 h |  | inhibition | 74% |
| CC(=O)Oc1cccc(/C=C/C(=O)Nc2nc(=O)n([C@@H]3O[C@H](C)[C@@H](OC(C)=O)[C@H]3OC(C)=O)cc2F)c1 | ASPC1 | cell viability, MTT |  | baseline: NHDF fibroblasts over ASPC1 | selectivity index | 1.62 |
| CCCCCCCC/C=C\CCCCCCCCOP(O)(O)=S.N | human cord blood CD34+ cells | clonogenic | 1 µM, 4 h, from 30 min after irradiation, added: 6 Gy irradiation |  | colony count increase | 64% |

Some of these lines once more:
| SMILES | cell line | test | setting | how to read | measurement | result |
| --- | --- | --- | --- | --- | --- | --- |
| CC12OOC(C)(OO1)C2CCC(=O)NCCNc1ccnc2cc(Cl)ccc12 (stereo not drawn) | HL-60 | cell growth or viability, resazurin | 10 µM, 48 h |  | inhibition | 74% |
| CC(C)C[C@H](NC(=O)[C@H](CCC(N)=O)NC(=O)CNC(=O)[C@H](Cc1c[nH]cn1)NC(=O)[C@H](CCC(N)=O)NC(=O)[C@H](CCCNC(=N)N)NC(=O)[C@H](CCCNC(=N)N)NC(=O)CNC(=O)CNC(=O)[C@H](CCCNC(=N)N)NC(=O)[C@H](CCCNC(=N)N)NC(=O)[C@H](CCCNC(=N)N)NC(=O)[C@H](CCC(N)=O)NC(=O)[C@H](CCCNC(=N)N)NC(=O)[C@H](CCCNC(=N)N)NC(=O)[C@H](CCCCN)NC(=O)[C@H](CCCCN)NC(=O)[C@H](CCCNC(=N)N)NC(=O)CN)C(=O)N[C@@H](Cc1c[nH]c2ccccc12)C(=O)N[C@@H](Cc1ccccc1)C(=O)N1CCC[C@H]1C(=O)N[C@@H](CCC(=O)O)C(=O)NCC(=O)N[C@@H](Cc1ccccc1)C(=O)O | TALL-1 | WST-8 | concentration not given, 24 h |  | viability | no effect |
